Measurements from different studies.
Compare with care: the assays were run in different laboratories.

With `CC(C)c1ccc(N(C)c2ccc3c(c2)OCC[C@H]3CNc2cnccc2C(=O)O)cc1` the IC50 was ≥ 10000 nM (KALS-1; cell growth or viability, ATP luminescence; 7 days).
`Nc1ncc(-c2cc(-c3cnn(CC(F)(F)F)c3)ncc2F)nc1C(=O)NC1CNCC(F)C1` (stereo not drawn) gave a remaining binding of 71% (NDR1; KINOMEscan; 1 µM; baseline: DMSO control).
For `CNS(=O)(=O)Nc1nccc(Cc2c(C)c3ccc(Oc4ncccc4F)cc3oc2=O)c1F`, the IC50 was 156 nM (RKO; cell viability; 7 days).
`Cc1ncsc1-c1ccc(C(C)NC(=O)C2CC(O)CN2C(=O)C(NC(=O)CCCCCCCCCCN2CCCC(Nc3ncc(Cl)c(Nc4ccccc4S(=O)(=O)C(C)C)n3)C2)C(C)(C)C)cc1` (stereo not drawn) — result for “log2 fold change”: -1.67 (22Rv1; RNA-seq, measured: MFAP3L mRNA; concentration not given; baseline: DMSO).
`C=CC(=O)Nc1cccc(Cn2ncc3cnc(Nc4cnn(CCOC)c4)nc32)c1` — result for “percent of control”: 100% (DDR1 human; binding, KINOMEscan; 100 nM; lower = stronger binding).
For `C=CC(=O)N1CCCC(n2c(=O)c3ncccc3n(Cc3ccc(Oc4ccccc4)cc3)c2=O)C1` (stereo not drawn), “log2 fold change” read -0.353 (Rec1; measured: TMPO-AS1; concentration not given; baseline: untreated).
For `COC1CN([C@H]2CC[C@H]([C@@]3(C)Oc4c(Cl)cc(C(=O)NCc5c(SC)cc(C)[nH]c5=O)c(C)c4O3)CC2)C1`, “log2 fold change” read 4.01 (RNA-seq, measured: SMPD3 mouse homolog; mouse, HT-1376 xenograft, whole blood; dose not given; baseline: vehicle).
`Cn1ncc2cc(-c3cncc(Cl)c3N3CCC4(CCNC4=O)CC3)ccc21` — result for “log2 fold change”: 6.41 (LS174T; gene expression, microarray, measured: CCDC80 mRNA; concentration not given, 24 h; baseline: untreated cells).
`CN1CCCNC(=O)c2cccc(c2)C(=O)NCCCN(C)CCCNc2cccc3c2C(=O)c2cccc(c2C3=O)NCCC1`: “log2 fold change” -1.22 (SAS; RNA-Seq, measured: ATAD1 mRNA; 1 µM, 6 h; baseline: untreated cells).
The fold regulation of `CCN(CC)CC(=O)Nc1cccc(-n2cc(-c3ccc4ccc(-c5cn(-c6cccc(NC(=O)CN(CC)CC)c6)nn5)cc4c3)nn2)c1` is reported as -1.23 fold (RCC4; PCR angiogenesis array, measured: TIMP1; 5 x IC50, 4 h, normoxia; baseline: untreated).
`C=C(NC(=O)c1csc(-c2nc3c(cc2O)-c2nc(cs2)C(=O)NC(C(C)O)C(=O)NC(=C(C)OC)c2nc(cs2)C(=O)NC2c4nc(cs4)C(=O)NC(COC(=O)c4c5c6c(cccc6n4O)COC(=O)C(OC4CC(C)(O)C(N(C)C)C(C)O4)C2OC5)c2nc-3cs2)n1)C(N)=O` (stereo not drawn) gave an AUC(0-t) of 1240 ng·h/mL (ICR mice, Streptococcus pneumoniae ATCC 49169 infected, immunocompromised, blood; intravenous, 16 mg/kg/day twice daily).
With `CN(C)c1ccc(-n2cc(COC(=O)[C@@]3(C)C=C(C(=O)OC(C)(C)C)C(=O)CC3)nn2)cc1` the pRSK/tubulin ratio was 0.238 (HeLa; quantitative western blot; concentration not given, 7 (unit not given), together with: EGF).

Some of these lines once more:
With `CN(C)c1ccc(-n2cc(COC(=O)[C@@]3(C)C=C(C(=O)OC(C)(C)C)C(=O)CC3)nn2)cc1` the pRSK/tubulin ratio was 0.238 (HeLa; quantitative western blot; concentration not given, 7 (unit not given), together with: EGF).
